Measured values of several laboratories.
Compare with care: the assays were run in different laboratories. Numbers after ± are the reported error.
Cell line: A549

CCOC12C(O)C(OC)C3(O)CC(C1C3OC(=O)c1ccccc1)C13C(OC)CCC4(COC)CN(C)C1C2C(OC)C43 (stereo not drawn) — IC50 (cell growth or viability, MTT): 14.5 µM
Fc1ccc(-c2cn(CSc3ccccc3)nn2)c(F)c1 — IC50 (cell growth or viability, MTS; 72 h): 16.2 µM
CC(=O)[O][Pt]([Cl])([Cl])[O]C(C)=O.N.N — IC50 (cell growth or viability): 32.3 µM
O=C1CC(c2ccc(O)cc2)Oc2cc(O)cc([O][Ga+][O]c3cc(O)cc4c3C(=O)CC(c3ccc(O)cc3)O4)c21 (stereo not drawn) — IC50 (cell growth or viability, MTT): > 200 µM
C=C1C(=O)[C@@]23CC[C@@H]4C(C)(C)CCC[C@@]4(COC(C)=O)[C@@H]2[C@@H](O)C[C@@H]1C3 (single isomer, unassigned) — IC50 (cell growth or viability, MTT): 4 µM
COc1ccc(C2=NN(C3=NC(=O)/C(=C/c4ccc(Cl)cc4)S3)C(c3ccc(F)cc3)C2)cc1 (stereo not drawn) — IC50 (cell growth or viability, MTT): 89 µM
C[C@H]1[C@H](C)CC[C@]2(C)CC[C@]3(C)C(=CC(=O)[C@@H]4[C@@]5(C)CC[C@@H](O)[C@](C)(C(=O)NCCNC(=O)C6CCCCC6)[C@@H]5CC[C@]43C)[C@H]12 — IC50 (cell growth or viability, MTT; 48 h): 12.8 µM
COC(C)(C)/C=C/C[C@@](C)(O)[C@H]1CC[C@]2(C)[C@@H]1CC[C@@H]1[C@@]3(C)CCC(=O)C(C)(C)[C@@H]3CC[C@]12C — IC50 (cell growth or viability, SRB): 31.1 µM
COc1ccc(C(=O)c2cc(C(=O)c3cc(Cl)ccc3O)c[n+]3c2NCCCC3)cc1 — IC50 (cell growth or viability, MTT; 96 h): 26.4 µM
COc1ccc(/C=C/C2=[N+]3C(=C(CO)c4c(C)cc(/C=C/c5ccc(OC)cc5)n4[B-]3(F)F)C(C)=C2C=O)cc1 — IC50 (phototoxicity, resazurin; added: 645 nm light, 9.00 J/cm2): 8.3 ± 0.4 µM
C[O][Pt-2]([NH3+])([NH3+])([Cl])([Cl])[O]C(=O)CCC(=O)O — IC50 (cell growth or viability, MTT; 96 h): 220 µM
CCCCn1cc(C(=O)O)c(=O)c2cc(F)c(Nc3ccc(OC)cc3)c(N)c21 — IC50 (cell growth or viability, SRB; 72 h): 4.91 µg/mL
N#Cc1c(F)c(Cl)c2nc(SCC3CCCO3)nc(N)c2c1F (stereo not drawn) — IC50 (cell growth or viability, MTT; 96 h): 6 µM
COc1c(O)cc2oc3cc(O)c(CC=C(C)C)c(O)c3c(=O)c2c1CC=C(C)C — IC50 (cell growth or viability; 48 h): 13.8 µM
C[OH+][Cu-2]12[O]C(c3cn(-c4ccccc4)nc3-c3ccccc3)=N[N+]1=C(C)c1c(cc(C)oc1=O)[O]2 (stereo not drawn) — IC50 (cell growth or viability, MTT; 48 h): 7.81 µM
CC(C)c1cccc(C(C)C)c1[N+]#[C][Pt-]([Cl])([Cl])=[C](Nc1cccc(CN[C](Nc2c(C(C)C)cccc2C(C)C)=[Au][Cl])c1)Nc1c(C(C)C)cccc1C(C)C — IC50 (cell growth or viability): > 100 µM
O=C1c2cccc3cccc(c23)C12NC(Cc1ccc(O)cc1)C([N+](=O)[O-])C2c1ccccc1 (stereo not drawn) — IC50 (cell growth or viability, MTT; 48 h): 40 µM
CN1CCC2(CC1)C/C(=N\NC(=O)Nc1ccc(Cl)cc1)c1ccccc1O2 — IC50 (cell growth or viability, MTT; 48 h): 8.03 µM
N[C@@H](CNC(=O)c1ccc2[nH]c(C(=O)c3ccc(O)cc3)nc2c1)C(=O)O — IC50 (cell growth or viability, ATP luminescence; 72 h): > 300 µM
Clc1ccc(NN=C(c2ccccc2)c2ccccn2)nc1 — IC50: 0.25 µM
c1ccc(-c2nn(-c3nc4ccccc4s3)[n+](-c3ccccc3)n2)cc1 — IC50 (cell growth, resazurin): 41 ± 3 µM
C=CC(=O)Nc1cc(Nc2nccc(-c3c(-c4cccc(-c5ccccc5)c4)n(C)c4ccccc34)n2)c(OC)cc1N(C)CCN(C)C — IC50 (cell growth or viability, MTT; 72 h): 0.4 µM
CCn1cc[n+](CC)[c]1[Au-][Cl] — IC50 (cell growth or viability, crystal violet; 72 h): 13.5 µM
COc1ccc(C([O-])=CC(=O)c2ccc(C(C)(C)C)cc2)cc1.[Cl-].[Ru+2].c1ccc(-c2cccc(-c3ccccn3)n2)nc1 — IC50 (cell viability, resazurin; 72 h, dark): inactive
COc1c(Cc2ccccc2O)c(O)c2c(c1Cc1ccccc1O)O[C@H](c1ccccc1)CC2=O — IC50 (cell viability, MTT; 72 h): inactive
COc1c(O)cc2oc3cc4c(c(O)c3c(=O)c2c1CCC(C)(C)O)CCC(C)(C)O4 — IC50 (cell growth or viability; 48 h): > 40 µM
S=c1n(-c2ccccc2)c2c3ccccc3nc3[n+]2[n]1[Ir-3]12([S]3)([c]3ccc4ccccc4c3-c3sc4ccccc4[n+]31)[c]1ccc3ccccc3c1-c1sc3ccccc3[n+]12 — IC50 (cell viability, MTT; dark): > 25 µM
COc1ccc(-c2nnc(-c3ccccn3)[nH]2)cc1OC — IC50 (cell growth or viability, MTT; 24 h): > 100 µM
Cc1cc(C=O)cc(C)c1Oc1cc(Nc2ccc(C#N)cn2)nc2cnccc12 — IC50 (48 h): 55.5 ± 5.5 µM
Cc1ccc(C(C)C)cc1.Oc1ccccc1C=NNC1=Nc2ccccc2-c2[nH]c3ccc(Br)cc3c2C1.[Cl-].[Cl][Os+] — IC50 (cell growth or viability, MTT; 96 h): 4.6 µM
CC(=O)O[C@@H]1CC[C@@]2(C)[C@@H](CC[C@]3(C)[C@@H]2C(=O)C=C2[C@@H]4[C@@H](C)[C@H](C)CC[C@]4(C)CC[C@]23C)[C@@]1(C)C(=O)NCCNC(=O)OC(C)(C)C — IC50 (cell growth or viability, MTT; 48 h): > 30 µM
[Cl-].[Cl-].[Ru+2].c1ccc(-c2ccccn2)nc1.c1ccc(-c2ccccn2)nc1.c1ccc(-c2ccccn2)nc1 — IC50 (cell growth or viability; 72 h, dark): > 100 µM
Cc1cc(C)c(N[C](NCc2ccc(N[C](Nc3c(C(C)C)cccc3C(C)C)=[Pt-]([Cl])([Cl])[C]#[N+]c3c(C(C)C)cccc3C(C)C)cc2)=[Au][Cl])c(C)c1 — IC50 (cell growth or viability): > 100 µM
CCCCSc1nc(N)c2c(F)c(F)c(C#N)c(F)c2n1 — IC50 (cell growth or viability, MTT; 96 h): 70.5 µM
C=C(C)[C@@H]1CC[C@]2(C(=O)OCO/N=[N+](\[O-])N3CCCC3)CC[C@]3(C)[C@H](CC[C@@H]4[C@@]5(C)CC[C@H](OC(C)=O)C(C)(C)[C@@H]5CC[C@]43C)[C@@H]12 — IC50 (cell growth or viability, MTT; 72 h): 7.44 µM
O=[N+]([O-])[O-].[NH3+][Pt-2]1([NH3+])[O]C(C(F)(F)F)=CC(c2ccccc2)=[O+]1 (stereo not drawn) — IC50 (cell growth or viability, MTT): 1.3 µM
CC(=O)O[C@H]1C[C@H](O[C@H]2[C@@H](O)C[C@H](O[C@H]3[C@@H](O)C[C@H](O[C@H]4CC[C@@]5(C)[C@H](CC[C@@H]6[C@@H]5CC[C@]5(C)[C@@H](C7=CC(=O)OC7)CC[C@]65O)C4)O[C@@H]3C)O[C@@H]2C)O[C@H](C)[C@H]1O[C@@H]1O[C@H](CO)[C@@H](O[C@@H]2O[C@H](CO)[C@@H](O)[C@H](O)[C@H]2O)[C@H](O)[C@H]1O — IC50 (cell growth or viability, MTT; 48 h): 0.25 µM
COc1cc([C@@H]2c3cc4c(cc3[C@H](OC(=O)CCCc3ccc(NS(=O)(=O)c5ccccc5Br)cc3)[C@H]3COC(=O)[C@H]23)OCO4)cc(OC)c1OC — IC50 (cell growth or viability, CCK-8; 24 h): 14.1 µM
Brc1ccc(Nc2nc(NN=Cc3c[nH]c4ccccc34)nc(N3CCOCC3)n2)cc1 — IC50 (cell growth or viability, SRB; 5 days): 0.1 µM
C[C@]12CC/C(=N\O)C=C1CCC1C2CC[C@]2(C)/C(=C/c3ccccn3)CCC12 (stereo partly drawn) — IC50 (cell growth or viability, MTT; 72 h): 1.5 µM
CCCCCCCC(=O)Oc1c(C)c(OC)c2c(c1C)OC(=O)[C@@H](CCCCCC)[C@]2(O)/C=C/c1ccccc1 (racemic) — IC50 (cell growth or viability, SRB; 72 h): > 50 µM
N#Cc1cccc(-c2ccc(=O)n(Cc3cccc(-c4ncc(OCC5CCN(CCCC(=O)Nc6cccc7c6C(=O)N(C6CCC(=O)NC6=O)C7=O)CC5)cn4)c3)n2)c1 (stereo not drawn) — IC50 (cell growth or viability, CCK-8; 72 h): 0.653 µM

Repeated from above:
c1ccc(-c2nn(-c3nc4ccccc4s3)[n+](-c3ccccc3)n2)cc1 — IC50 (cell growth, resazurin): 41 ± 3 µM
C=C1C(=O)[C@@]23CC[C@@H]4C(C)(C)CCC[C@@]4(COC(C)=O)[C@@H]2[C@@H](O)C[C@@H]1C3 (single isomer, unassigned) — IC50 (cell growth or viability, MTT): 4 µM
[Cl-].[Cl-].[Ru+2].c1ccc(-c2ccccn2)nc1.c1ccc(-c2ccccn2)nc1.c1ccc(-c2ccccn2)nc1 — IC50 (cell growth or viability; 72 h, dark): > 100 µM
